Assay results of several laboratories.
Each line is one published result; not all experiments were run side by side. ± gives the spread as reported.

| SMILES | test | test system | setting | tissue uptake |
| --- | --- | --- | --- | --- |
| CCCC[C@H](NC(=O)CNC(=O)CNC(=O)CN1CCN(CC(=O)O)CCN(CC(=O)O)CCN(CC(=O)O)CC1)C(=O)N[C@H]1CC(=O)NCCCC[C@@H](C(N)=O)NC(=O)[C@H](Cc2c[nH]c3ccccc23)NC(=O)[C@H](CCCNC(=N)N)NC(=O)[C@@H](Cc2ccccc2)NC(=O)[C@H](Cc2c[nH]cn2)NC1=O [gallium-67 labelled] | – | female C57 mice, B16/F1 melanoma, stomach | intravenous, 0.037 MBq, 0.5 h | 2.51 ± 0.5 %ID/g |
| O=C([O-])c1cccc(CN(CCN(Cc2cn(Cc3ccccc3)nn2)Cc2cccc(C(=O)[O-])n2)Cc2cn(Cc3ccccc3)nn2)n1.[64Cu+2] | – | healthy athymic nude mice, large intestine | intravenous, 15 min | 1.28 %ID/g |
| CCCC[C@H](NC(=O)CNC(=O)CNC(=O)CN1CCN(CC(=O)O)CCN(CC(=O)O)CC1)C(=O)N[C@H]1CC(=O)NCCCC[C@@H](C(N)=O)NC(=O)[C@H](Cc2c[nH]c3ccccc23)NC(=O)[C@H](CCCNC(=N)N)NC(=O)[C@@H](Cc2ccccc2)NC(=O)[C@H](Cc2c[nH]cn2)NC1=O [gallium-67 labelled] | – | female C57 mice, B16/F1 melanoma, kidneys | intravenous, 0.037 MBq, 0.5 h | 11.67 ± 0.06 %ID/g |
| CCCC[C@@H]1NC(=O)[C@@H](NC(=O)[C@H](CCC(=O)O)NC(=O)CNC(=O)CN2CCN(CC(=O)O)CCN(CC(=O)O)CCN(CC(=O)O)CC2)CCCCNC(=O)C[C@@H](C(N)=O)NC(=O)[C@H](C(C)C)NC(=O)[C@@H]2CCCN2C(=O)[C@H](CCCNC(=N)N)NC(=O)CNC(=O)[C@H](Cc2c[nH]c3ccccc23)NC(=O)[C@H](CCCNC(=N)N)NC(=O)[C@@H](Cc2ccccc2)NC(=O)[C@H](Cc2c[nH]cn2)NC(=O)[C@H](CCC(=O)O)NC1=O [gallium-67 labelled] | – | C57 mice with B16/F1 melanoma, stomach | intravenous, 0.037 MBq, 2 h | 0.08 ± 0.07 %ID/g |
| O=C([O-])CN1CCN(CC(=O)[O-])CCN(CC(=O)[O-])CCN(CC(=O)[O-])CC1.[64Cu+2] | – | healthy athymic nude mice, heart | intravenous, 24 h | 0.52 %ID/g |
| CCCC[C@H](NC(=O)CN1CCC(NC(=O)CN2CCN(CC(=O)O)CCN(CC(=O)O)CCN(CC(=O)O)CC2)CC1)C(=O)N[C@H]1CC(=O)NCCCC[C@@H](C(N)=O)NC(=O)[C@H](Cc2c[nH]c3ccccc23)NC(=O)[C@H](CCCNC(=N)N)NC(=O)[C@@H](Cc2ccccc2)NC(=O)[C@H](Cc2c[nH]cn2)NC1=O [gallium-68 labelled] | – | C57BL/6J mice male B16-F10 tumour, heart | 2 h post injection, unblocked | 0.1 %ID/g |
| CC(C)[C@H](NC(=O)[C@@H]1CCCN1C(=O)[C@H](CCCNC(=N)N)NC(=O)[C@H](CS)NC(=O)[C@H](Cc1c[nH]c2ccccc12)NC(=O)[C@H](CCCNC(=N)N)NC(=O)[C@@H](Cc1ccccc1)NC(=O)[C@H](Cc1c[nH]cn1)NC(=O)[C@H](CCC(=O)O)NC(=O)[C@H](CS)NC(=O)[C@H](CS)NC(=O)CNC(=O)[C@@H]1CC(=O)N[C@@H](CCCNC(=N)N)C(=O)NCC(=O)N[C@@H](CC(=O)O)C(=O)N[C@H](Cc2ccc(O)cc2)C(=O)N1)C(N)=O [technetium-99m labelled] | – | C57 mice B16/F1 melanoma female, intestines | iv, 0.037 MBq, 4 h | 4.71 ± 2.8 %ID |
| O=C([O-])CN1CCN(CC(=O)[O-])CCN(CC(=O)NCCc2ccc3c(c2)C2C=CCC2C(c2cc4c(cc2Br)OCO4)N3)CCN(CC(=O)[O-])CC1.[111In+3] (stereo not shown) | – | mice with Hec50 tumour xenograft, blood | 2 h, added: G-1 5 µg blocking | 1.11 ± 0.17 %ID/g |
| CN1C(=O)[C@@H](Cc2ccc(O)c(I)c2)NC(=O)CNC(=O)[C@H](Cc2ccc3ccccc3c2)NC(=O)[C@H](CCCNC(=N)N)NC(=O)[C@H]1CCCNC(=O)c1ccc(CNC(=O)CN2CCN(CC(=O)O)CCN(CC(=O)O)CCN(CC(=O)O)CC2)cc1 [lutetium-177 labelled] | refers to: 177Lu radioactivity | female CB-17 SCID mice, Daudi xenograft, pancreas | intravenous, 0.16 nmol per mouse, 6 h | 0.09 ± 0.01 %ID/g |
| N=C(N)NCCC[C@@H]1NC(=O)[C@H](CCCCNC(=O)CON=C[C@H](F)[C@@H](O)[C@H](O)[C@H](O)CO)NC(=O)[C@@H](Cc2ccc(O)cc2)NC(=O)[C@H](CC(=O)O)NC(=O)CNC1=O [fluorine-18 labelled] | – | nude mice U-87 MG tumour, blood | intravenous, 2 h | 0.54 ± 0.31 %ID/g |
| O=C(NCC1OC2CCC=CCCC2O1)c1ccc(COCCOCCOCC[18F])cc1 (stereo not shown) | – | female BALB/c nude mice, kidneys | intravenous, 15 min | 11.9 ± 0.7 %ID/g |
| NC12CNCCNCC(NCc3ccc(CNC(=O)CCCC(=O)NCc4ccc(-c5nncnn5)cc4)cc3)(CNCCNC1)CNCCNC2.[64Cu+2] | – | athymic nude mice, SW1222 xenograft, spleen | 24 h post-injection, 24 h pretargeting interval, added: huA33-TCO pretargeting | 0.64 ± 0.04 %ID/g |
| CC(C)[C@H](NC(=O)[C@@H]1CCCN1C(=O)[C@H](CCCNC(=N)N)NC(=O)[C@H](CS)NC(=O)[C@H](Cc1c[nH]c2ccccc12)NC(=O)[C@H](CCCNC(=N)N)NC(=O)[C@@H](Cc1ccccc1)NC(=O)[C@H](Cc1c[nH]cn1)NC(=O)[C@H](CCC(=O)O)NC(=O)[C@H](CS)NC(=O)[C@H](CS)NC(=O)[C@@H]1CC(=O)N[C@@H](CCCNC(=N)N)C(=O)NCC(=O)N[C@@H](CC(=O)O)C(=O)N[C@H](Cc2ccc(O)cc2)C(=O)N1)C(N)=O [technetium-99m labelled] | – | C57 mice B16/F1 melanoma female, intestines | iv, 0.037 MBq, 24 h | 1.22 ± 0.21 %ID |

For quick reference, copied from above:
| SMILES | test | test system | setting | tissue uptake |
| --- | --- | --- | --- | --- |
| CCCC[C@H](NC(=O)CNC(=O)CNC(=O)CN1CCN(CC(=O)O)CCN(CC(=O)O)CC1)C(=O)N[C@H]1CC(=O)NCCCC[C@@H](C(N)=O)NC(=O)[C@H](Cc2c[nH]c3ccccc23)NC(=O)[C@H](CCCNC(=N)N)NC(=O)[C@@H](Cc2ccccc2)NC(=O)[C@H](Cc2c[nH]cn2)NC1=O [gallium-67 labelled] | – | female C57 mice, B16/F1 melanoma, kidneys | intravenous, 0.037 MBq, 0.5 h | 11.67 ± 0.06 %ID/g |
| CCCC[C@@H]1NC(=O)[C@@H](NC(=O)[C@H](CCC(=O)O)NC(=O)CNC(=O)CN2CCN(CC(=O)O)CCN(CC(=O)O)CCN(CC(=O)O)CC2)CCCCNC(=O)C[C@@H](C(N)=O)NC(=O)[C@H](C(C)C)NC(=O)[C@@H]2CCCN2C(=O)[C@H](CCCNC(=N)N)NC(=O)CNC(=O)[C@H](Cc2c[nH]c3ccccc23)NC(=O)[C@H](CCCNC(=N)N)NC(=O)[C@@H](Cc2ccccc2)NC(=O)[C@H](Cc2c[nH]cn2)NC(=O)[C@H](CCC(=O)O)NC1=O [gallium-67 labelled] | – | C57 mice with B16/F1 melanoma, stomach | intravenous, 0.037 MBq, 2 h | 0.08 ± 0.07 %ID/g |
